Published values collected from several papers.
Every numbered part comes from another study and shows a few of its results, in no order. Positions count from the first letter of the parent shown.

Study 1 — technique: RNA Bind-n-Seq; molecule type: RNA; matrix: in vitro; concentration: 200 nM; setting: whole 134-nt RNA, ends assumed; added: 150 mM KCl; relative to: input library; direction: higher = stronger binding
Target: Fragile X messenger ribonucleoprotein 1, C-terminal low-complexity region (Fmr1, Mus musculus, UniProt P35922)
All sequences stand within: GGGAGUUCUACAGUCCGACGAUC … UGGAAUUCUCGGGUGUCAAGG
`UGGGAGGUGGAUUUUGUUUAUUUUUUUAGCUCAUUUCCAGUGGUGGGAAUUUUUUUUUAAUAUGUGUCAUGAAUAAAGUUGUUUUUGAAA` gave a log2 enrichment of -0.0796.
For `CCUCUGGACGAGACCAGCCAGAUGAGCGACCUCCCGGUGAAGGUGAUCCACGUGGAGAGUGGGAAGAUCCUCACAGGCACAGAUGCCCCC`, the log2 enrichment was 0.0887.
For `AAGUCCUGUGCUACACAUCGUAUGUACCGAAUCGGGAAAAGGGAAAAGGGAAAAGGGAAAGUAUUAUGUUACGCCGUUCGGAUCUGCACU`, the log2 enrichment was -0.075.
`UCCUGUGCUACACAUCGUAUGUACCGAAUCGGGGUUUUUGGGGUUUUUGGGGAAAGGGGAAAGUAUUAUGUUACGCCGUUCGGAUCUGCA` gave a log2 enrichment of 0.888.
With `CCUGUGCUACACAUCGUAUGUACCGAAUCGGGGUUUUUGGGGUUUUUGGGGUUUUUGGGGAAAGUAUUAUGUUACGCCGUUCGGAUCUGC` the log2 enrichment was 0.599.
`UGGGAGGUGGAUUUUGUUUAUUUUUUUAGCUUAUUUCCAGGGGUGGGAAUUUUUUUUUAAUAUGUGUCAUGAAUAAAGUUGUUUUUGAAA` has a log2 enrichment of 0.181.
The log2 enrichment of `GCAGGAAGUAAAAACAAAUGGAAAUGCUUCGGAUAGUGGCAGGGGUGGGGGUUGCUUAGGAAAGGGUGGGAUGGGAGUGGGUAAAGAGUU` is reported as 0.213.
For `GCAGGAAGUAAAAACAAAUGGAAAUGCUUCGGAUAGUGGCAGGGGUGGGGGUUGCUAAGGAAAGCGUGGGAUGGGAGUGGGUAAAGAGUU`, the log2 enrichment was 0.481.
With `UUGAGAUUGGGUGGAUUCCUAUCAUCUGGAAUUCUGACUCCUCGGGUCUCCUUCUCUAGGUAGCCCAGCAGCAGUGAAGAUGCAGACUGA` the log2 enrichment was -1.27.
`UAACUUUAGAGGAGGAUCUGAUGGAUAUGGCAGUGGACGUGGAUUUGGGGAUGGCUAUAAUGGGUAUGGAUGAGGACCUGGAGGUGGCAA` gave a log2 enrichment of 0.168.
`GUCCUGUGCUACACAUCGUAUGUACCGAAUCGGGGUUUUUUGGUUUUUUGGUUUUUUGGAAAGUAUUAUGUUACGCCGUUCGGAUCUGCA` gave a log2 enrichment of -0.627.
The log2 enrichment of `ACCAUGCAGGCGGGCAUCUUUGGGAAGUGGGGCAAGGGGGGGAUAGGGAGGGGGGUAACACUUUGGGAACAGGUGGUCCCAGGUCGUUUC` is reported as 0.952.
`UGGCCCUGGUGGCAUGCGGGGAGGAAGAGGUGGCCUCAUGGAUCGAGGUGGUCCCGGUGGAAUGUUCAGAGGUGGCCGUGGUGGAGACAG` has a log2 enrichment of 0.0398.

Study 2 — target: CCNA1, cyclin fold, Cln2 fusion (human); technique: yeast growth competition, sequencing; matrix: yeast; setting: weak parent motif; relative to: not given; direction: higher = stronger binding
Starting sequence: MICAL3 docking peptide (human); LQLRRQLSFSEDS; partner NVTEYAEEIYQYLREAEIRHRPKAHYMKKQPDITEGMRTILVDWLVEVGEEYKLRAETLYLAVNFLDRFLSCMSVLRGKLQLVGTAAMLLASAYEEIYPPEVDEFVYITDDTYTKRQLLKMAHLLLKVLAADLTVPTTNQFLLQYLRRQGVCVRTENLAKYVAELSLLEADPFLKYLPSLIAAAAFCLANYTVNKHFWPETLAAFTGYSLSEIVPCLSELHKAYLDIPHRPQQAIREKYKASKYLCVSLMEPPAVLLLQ
`LQLRRQLSFSEGS [D12G]` — result for “normalised enrichment score”: 0.266.
`LQLRFQLSFSEDS [R5F]`: “normalised enrichment score” 0.17.
`LQLRMQLSFSEDS [R5M]`: “normalised enrichment score” 0.133.
Under “normalised enrichment score”, `LQLRRQLSFSQDS [E11Q]` is recorded as 0.29.
For `LQLRRQLSTSEDS [F9T]`, “normalised enrichment score” read 0.366.
Under “normalised enrichment score”, `LQLNRQLSFSEDS [R4N]` is recorded as 0.0497.
`LQLQRQLSFSEDS [R4Q]`: “normalised enrichment score” 0.000284.
`LQLREQLSFSEDS [R5E]` — result for “normalised enrichment score”: 0.0599.
For `LQLRRQLSFSEWS [D12W]`, “normalised enrichment score” read 0.235.
`LQMRRQLSFSEDS [L3M]` — result for “normalised enrichment score”: 0.117.
Under “normalised enrichment score”, `LQLRRCLSFSEDS [Q6C]` is recorded as 0.505.
For `LALRRQLSFSEDS [Q2A]`, “normalised enrichment score” read 0.0279.
For `LVLRRQLSFSEDS [Q2V]`, “normalised enrichment score” read 0.46.
`LQIRRQLSFSEDS [L3I]` — result for “normalised enrichment score”: 0.926.
Under “normalised enrichment score”, `LQLRRQLSFSNDS [E11N]` is recorded as 0.422.
For `LQLRRQLKFSEDS [S8K]`, “normalised enrichment score” read 0.607.
`LQLRRQLSFLEDS [S10L]` — result for “normalised enrichment score”: 0.408.
`LQLRCQLSFSEDS [R5C]` — result for “normalised enrichment score”: 0.292.
Under “normalised enrichment score”, `LQLRNQLSFSEDS [R5N]` is recorded as 0.466.
Under “normalised enrichment score”, `LQLRDQLSFSEDS [R5D]` is recorded as 0.151.
For `LQLRRQLSFSHDS [E11H]`, “normalised enrichment score” read 0.184.
For `LQPRRQLSFSEDS [L3P]`, “normalised enrichment score” read 0.877.
`LQLERQLSFSEDS [R4E]` — result for “normalised enrichment score”: -0.452.
`LQLRRGLSFSEDS [Q6G]` — result for “normalised enrichment score”: 0.0914.
For `LELRRQLSFSEDS [Q2E]`, “normalised enrichment score” read 0.163.

Study 3 — technique: protein-binding microarray; molecule type: double-stranded DNA, one strand shown; matrix: in vitro; concentration: 250 nM; setting: 60-bp whole probe; added: salmon DNA 0.4 mg/ml; relative to: random background probes; direction: higher = stronger binding; all sequences stand within: GCCTAGCAC … GTCTTGATTCGCTTGACGCTGCTG
Target: Interferon regulatory factor 5, full length, phosphomimetic (IRF5, Homo sapiens, UniProt Q13568-2, residues 1-514, K96S/S451D/S453D/S456D/S462D)
`TTGTGTCTGGGCATTTTTTTTGTGCTA` gave a log fluorescence of -0.459 z-score.
`TCATCTCTGCTCTTTTCAACTGTGCTA` gave a log fluorescence of 0.736 z-score.
`TCATTTCTCCCAAGTCTTACTGTGCTA` gave a log fluorescence of 1.39 z-score.
`TTAGGTTTCGGTCTCGGATAGTGCTAG` gave a log fluorescence of 9.93 z-score.
`GGGCATTTGGAAAATGTAAACGTGCTA` gave a log fluorescence of -0.0546 z-score.
For `GAGGGTTTCGACTTTCGGGACGTGCTA`, the log fluorescence was 7.32 z-score.
For `TTAGGTATCGGGCTTCGGTTAGTGCTA`, the log fluorescence was 2.31 z-score.
`TCACCTTTTAAGTTCTCACTGTGCTAG` gave a log fluorescence of 0.767 z-score.
`TTAGATTCCAGTTTCAATTAGTGCTAG` gave a log fluorescence of 3.17 z-score.
For `GACGATATCAGATTGGAGACGTGCTAG`, the log fluorescence was 0.579 z-score.
For `TCACTAGTGTTTTTCTCACTGTGCTAG`, the log fluorescence was 0.573 z-score.
The log fluorescence of `GACGGACTGGGTTTTCGGGACGTGCTA` is reported as 0.514 z-score.
With `TCAAATAATCTTTTCACACTGTGCTAG` the log fluorescence was 0.845 z-score.
The log fluorescence of `GACGGACTAGGTCTCGGGACGTGCTAG` is reported as -0.528 z-score.
For `GACGGTTTCGACATTCGGGACGTGCTA`, the log fluorescence was 5.22 z-score.
With `TTAGCACTGGGACTGGGTTAGTGCTAG` the log fluorescence was -0.156 z-score.
`TTAGGTATCCGGTATCGGTTAGTGCTA` gave a log fluorescence of 5.4 z-score.
With `GCTGCCCTCACCATCATCCTGTGCTAG` the log fluorescence was -0.173 z-score.
For `TTAGAACTGAGACTGGACTAGTGCTAG`, the log fluorescence was -0.373 z-score.
With `TTAAAACTGGGGTTTCGATTAGTGCTA` the log fluorescence was 6.16 z-score.

Study 4 — technique: DHFR PCA, deep sequencing; matrix: yeast; added: (+)-ABA 17 µM; relative to: wild-type fitted maximum; direction: higher = stronger binding
Target: ABI1, truncated, D143A, DHFR fusion (Arabidopsis thaliana)
Setting: methotrexate growth selection, single substitutions
Starting sequence: PYL1, truncated, DHFR fusion (Arabidopsis thaliana); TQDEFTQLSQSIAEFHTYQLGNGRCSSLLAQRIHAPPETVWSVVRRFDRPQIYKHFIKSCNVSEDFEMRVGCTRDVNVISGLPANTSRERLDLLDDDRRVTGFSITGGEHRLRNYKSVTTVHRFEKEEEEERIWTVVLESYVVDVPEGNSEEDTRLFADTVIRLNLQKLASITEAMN; partner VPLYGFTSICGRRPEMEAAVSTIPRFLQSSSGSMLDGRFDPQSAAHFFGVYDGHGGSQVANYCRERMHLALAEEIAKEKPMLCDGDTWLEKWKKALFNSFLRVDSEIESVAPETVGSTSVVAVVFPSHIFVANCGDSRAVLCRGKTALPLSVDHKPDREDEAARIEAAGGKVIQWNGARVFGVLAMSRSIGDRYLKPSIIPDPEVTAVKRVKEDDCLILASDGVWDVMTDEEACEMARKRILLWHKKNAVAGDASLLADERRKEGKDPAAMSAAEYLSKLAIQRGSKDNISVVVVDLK
For `L29C`, “relative binding score” read 67.9%.
`R111S`: “relative binding score” 15.1%.
`H122I` — result for “relative binding score”: 1.84%.
`T73M`: “relative binding score” 87.6%.
For `F5Q`, “relative binding score” read 76.6%.
`E67H` — result for “relative binding score”: 77.1%.
Under “relative binding score”, `C25T` is recorded as 84.7%.
For `F15W`, “relative binding score” read 80.1%.
`E174H` — result for “relative binding score”: 46%.
For `I172R`, “relative binding score” read 29%.
For `P37M`, “relative binding score” read 41.1%.
`T173A`: “relative binding score” 85.3%.
Under “relative binding score”, `A13C` is recorded as 71.7%.

Some of these lines once more (study 2):
`LQLRRQLSFSEGS [D12G]` — result for “normalised enrichment score”: 0.266.
`LQLRFQLSFSEDS [R5F]`: “normalised enrichment score” 0.17.
`LQLRMQLSFSEDS [R5M]`: “normalised enrichment score” 0.133.
Under “normalised enrichment score”, `LQLRRQLSFSQDS [E11Q]` is recorded as 0.29.
